Experimental data pooled from the literature.
Numbered parts are unrelated; each lists some results of a single study. Substitutions count along the parent as printed.

Set 1 — method: competition protein-binding microarray; molecule type: double-stranded DNA, one strand shown; matrix: in vitro; concentration: 2 µM; added: Pho4 competitor, 0.05 µM; reading: higher = stronger binding; measurement: fluorescence intensity; constant ends, left off below: … GTCTTGATTCGCTTGACGCTGCTG
Target: Centromere-binding protein 1, full length, His-tagged (CBF1, Saccharomyces cerevisiae, UniProt P17106, residues 1-351)
Sequence of UniProt P17106 (whole entry, looked up): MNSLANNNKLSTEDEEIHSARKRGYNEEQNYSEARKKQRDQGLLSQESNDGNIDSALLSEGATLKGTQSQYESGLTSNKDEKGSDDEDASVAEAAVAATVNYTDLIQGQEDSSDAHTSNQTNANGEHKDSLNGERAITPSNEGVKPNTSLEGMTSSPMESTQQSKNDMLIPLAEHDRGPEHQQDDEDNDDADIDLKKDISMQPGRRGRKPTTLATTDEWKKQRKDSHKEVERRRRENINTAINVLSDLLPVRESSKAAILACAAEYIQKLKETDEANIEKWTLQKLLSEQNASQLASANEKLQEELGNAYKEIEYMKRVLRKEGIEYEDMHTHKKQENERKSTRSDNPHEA
Notes: whole 60-bp probe, lowest competitor level
AAAGCGGTAATTTGTCACCACACTTCACATATCTAT: 105 a.u.
TGCGCAACAACTTGCCACGTGGGTGTATGTCTAGAA: 1110 a.u.
ATCCCAATACAATTTAACGTGGGACCACCTACCATG: 76.4 a.u.
CCTTTTCTGGAGGTACATGTGCGCCCCTGATGAAGA: 105 a.u.
CATGCCATAAGCCATCACCTGGCCAGTTGGCGTATG: 86.7 a.u.
CTTCTGTAAATTTGGCTGGTGGGTGGACGCGCCCCG: 97.3 a.u.
AAATTACTAAGTTGTACTGTGGGTGACGCCGTATGA: 76.9 a.u.
AACGCCGTCCGTAACCATATGATTCACAATTTGATC: 126 a.u.
GTATGAATGCCGCTGTTCGTGCCGATGTTCGTACAG: 58.7 a.u.
AAAGCGGTAATTTGAAGAGTGGGTGCAGATATCTAT: 65.2 a.u.
GCAGAAGTAGCCAAAGATGTGACGCTACCGTTGTGA: 65.9 a.u.
CTAAAGTATATGACTCACGTGGTCGAAAGAAAGCGG: 3010 a.u.
CACATCTCCCTTGCGCCCGTGCTTTTATATATATAA: 98.3 a.u.
AAATTACTAAGTTGTCACTGAACTTACCCCGTATGA: 71 a.u.
CAGCAGCCTTGCCATCACGCTTAGCTTGAATGATGT: 86.4 a.u.
AAAGCGGTAATTTGTTCGGTGGGTGCAGATATCTAT: 63.6 a.u.
TGCGCAACAACTTGAAACGTGGGTGTATGTCTAGAA: 99.8 a.u.
AAAAAGATGCACCATCACGTGCTAAAAATCTAACAT: 4730 a.u.
TATGCTTTTCTTTTGAACGTGCAAAGCGCAGAGGCA: 92.7 a.u.
CACTGGCTGCTCCATCACGGGTCTCGAGGCGGAGAC: 103 a.u.
TAATATTTGTAAAAGCACGTGATGGTGCCTTTTTCT: 5530 a.u.
CTTTTAGGAATCCATCACGTGATGGGGATATCTACG: 14300 a.u.
GTCTTGTCTCATTGTCACGTGTTTTTCCCCACTTCA: 7230 a.u.
AAATTACTAAGTTTTCACGTGTTTTACCCCGTATGA: 1280 a.u.
TACGTTGCTGTATTCCCCGTGGGACATTCTCCAAGT: 75.2 a.u.

Set 2 — method: RNA Bind-n-Seq; molecule type: RNA; matrix: in vitro; concentration: 365 nM; reference: no-protein control; reading: higher = stronger binding; measurement: RBNS enrichment (R)
Target: RNA binding protein fox-1 homolog 2, RRM domain, GST-SBP tag (RBFOX2, Homo sapiens, UniProt O43251-10, residues 100-194)
Notes: natural RNA segment, single round, ends assumed
Constant ends, left off below: GGGAGUUCUACAGUCCGACGAUC … UGGAAUUCUCGGGUGCCAA
Construct (chain): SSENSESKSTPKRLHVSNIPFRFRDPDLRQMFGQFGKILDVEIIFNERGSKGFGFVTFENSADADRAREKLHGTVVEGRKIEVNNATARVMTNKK
CGAAAGGGGCAAGGGCUAAGGCAGAUGAUAAUCUGAAGCUAGAUUAAACAGUCUAGGUGCUCCUAACAACCACCCCCUGCCCGGGCCUCUCCUUUGUGAGCCACAGUUGU: 0.243
CACCUGCUUUUCAGAAAGACUAUUAUUUCCUAACCAUGAGAAGCAGACUAUAAUAUUCAUAUUUAAACAAAGCAAUUUUUUUUAUUACUAAACAAGGUUUUUAUGAAUAA: 0.547
AUGGCCCACUUUGACCACUAACAACAUCAGAAUUAUCUACAUCAAUUUCAUUGAGCCAUUGGUGAAUGAAGACACCCAUCACUUGUCAUGUUGGUUUCCAACAGUCCUUU: 0.335
CUGUCCUUCCUGGUCAUGCUGGCCUCCGAGGCGCGGGCUGGGAUCUGUCAGGCUGCGUAUUUAUUAAGUUUGGCUAUUCUAUAAAGACUUGUAUAUACUUCCGUGGAAAG: 0.611
GGCAGCCCCCACCUCCGUCCUGACCCGACGGGGGCCCGGCCCACUGCCUACCCUCGAGUCCCGCAGCCUUAACAGGAUGGGAUCGAGGGUCCCCAUGGGGUGGCUCAGAG: 0.159
CUUCAGUCUCCACCAGCCUGAAGGGCCUCCUAGGGGAUCCUCAGGCGGCCCCCACCAGGGCACACCCUACUGUCCUUGUGCCUCACGCCCCCUCCUCAUCCUGCACCCCU: 0.485
GAGGGAGGAGGGAGCCUGCUCACCCCACUCCAGGGCCUUCCCCAGCGGCCACCAACUGACCUGGGGCGCUGCUCCCCACAGUCCAAAUAAGCUGAAAGUGCAGCUCGCUG: 0.562
AAAAAUGACAAUGAAGAGACACUUUGACAUUUCCUACCUUUUGAGGACUUGAUCCUUCUCCAGGAAGAAGGUGCUUUCUGCUUACUGACUUAGGCAAUACACCAAGGGCG: 0.378
AUUGAAAGCUUCCAUGUUUAAUGUUAUCCUCUUGCUAUAUAAAUAAAGCAAAUAUAUUUAGGCCAGGGUCUCACUGAGGGGGAGCUGUCUUGUCAUCUUUUAGAGUAAAC: 0.439
GUUUCAUCAGAUCUGAUUUCUGAGAGUCUGGGGAUCUGCCAUGGUGGAAAGUGCCCCUCAAAAGCAUUUGUGUGGCCACAUGAACUGGCUGGCACCAGGGGAGUGAAACU: 0.439
CAUCCCGUCUGCCUGCCAUGGGACGGCUCCUCUGAGUGUUCCCUGGCCCCACGUGUGUGGUGUUUGUGUGUCUGUGCCUGGCCAAGGGAGGUGCCAACACUGGGCUUGCC: 1.03
AAUGAGACAAUCAUUUUAAGUUUUAAGAUAACAGAAGUGACCAAUGUAAUUUCACAACACCUAAGGAUUUUUUGGUUGAUCAGGUUACUGUAGAUUUUUACUGAUUGUCC: 0.544

Set 3 — method: DHFR PCA, deep sequencing; matrix: yeast; added: (+)-ABA 710 µM; reference: wild-type fitted maximum; reading: higher = stronger binding; measurement: relative binding score
Target: ABI1, truncated, D143A, DHFR fusion (Arabidopsis thaliana)
Notes: methotrexate growth selection, single substitutions
Starting sequence: PYL1, truncated, DHFR fusion (Arabidopsis thaliana); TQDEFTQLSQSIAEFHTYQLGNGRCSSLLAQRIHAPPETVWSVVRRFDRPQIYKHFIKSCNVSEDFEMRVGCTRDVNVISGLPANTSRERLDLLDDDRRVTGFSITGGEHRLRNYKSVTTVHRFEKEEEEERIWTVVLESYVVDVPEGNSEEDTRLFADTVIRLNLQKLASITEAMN
A35D: 5.05%
Q31M: 88.7%
V70T: 93.9%
I57V: 103%
E139Q: 96.5%
V137K: 1.77%
G148N: 93.2%
E64I: 93.2%
M176H: 100%
T39G: 91.6%
Q167D: 91.7%
R49H: 101%
L82M: 100%
L166T: -1.93%
P146V: 81%

Set 4 — method: RNAcompete; molecule type: RNA; matrix: in vitro; concentration: 20 nM; notes: 7-mer, probes averaged, single round; reference: mean of 7-mers; reading: higher = stronger binding; measurement: 7-mer Z-score
Target: PABPC1L2, full length, GST fusion (mouse, UniProt A0ABA7IW68)
Target sequence (chain): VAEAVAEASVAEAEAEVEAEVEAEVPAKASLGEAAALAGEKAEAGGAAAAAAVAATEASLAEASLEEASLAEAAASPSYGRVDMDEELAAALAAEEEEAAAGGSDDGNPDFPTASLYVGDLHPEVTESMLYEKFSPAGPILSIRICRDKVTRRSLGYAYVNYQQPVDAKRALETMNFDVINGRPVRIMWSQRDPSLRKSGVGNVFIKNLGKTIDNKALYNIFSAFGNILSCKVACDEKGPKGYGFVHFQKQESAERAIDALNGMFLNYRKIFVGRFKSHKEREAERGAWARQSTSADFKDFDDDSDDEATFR
GAGGAUC: -0.128
CAGAAAG: 0.811
UGAAUGG: -0.144
CAAAGGU: 0.0678
UAAGUAA: 0.111
GGAGCAU: -0.012
ACGCGAA: 0.0225
CGGUAAC: -0.166
CCUUGCG: -0.382
AUCUAAC: -0.199
CGCGGUA: -0.193
GCCUAUU: -0.344
GAGGGAC: 0.216
UGAAAUG: -0.0699
UCCAACU: -0.298
UAUGCGG: 0.0442
AACUCGU: -0.012
GAGAGCG: 0.0279
GGCUGGG: 0.0986

Set 5 — target: NFE2L3, bZIP domain (human); method: DHFR protein complementation; matrix: yeast; reference: wild-type JUN-FOS pair; reading: higher = stronger binding; measurement: binding fitness
Notes: single substitutions, most at no-binding floor
Starting sequence: JUN, bZIP domain (human); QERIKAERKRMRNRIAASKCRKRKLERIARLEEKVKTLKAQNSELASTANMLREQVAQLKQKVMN; partner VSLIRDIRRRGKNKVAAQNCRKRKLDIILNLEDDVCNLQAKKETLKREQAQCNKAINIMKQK
L45R: -1.54 natural log
L59R: -1.47 natural log
E54A: -1.36 natural log
A40M: -1.39 natural log
R53M: -1.59 natural log
N42P: -1.54 natural log
A49R: -1.44 natural log
K39A: -1.57 natural log
K36L: -1.28 natural log
L31P: -1.48 natural log
A49T: -1.46 natural log
S43W: -1.39 natural log
K39Q: -1.39 natural log
V56A: -1.52 natural log
A40T: -1.41 natural log
A40Y: -1.52 natural log
V35P: -1.52 natural log
S43R: -1.38 natural log
E32N: -1.48 natural log
V56H: -1.49 natural log
I28Q: -1.46 natural log
L31N: -1.45 natural log

Set 6 — target: CCND1, cyclin fold, Cln2 fusion (human); method: yeast growth competition, sequencing; matrix: yeast; notes: weak parent motif; reference: not given; reading: higher = stronger binding; measurement: normalised enrichment score
Starting sequence: CDKN1C docking peptide (human); TSACRSLFGPVDH; partner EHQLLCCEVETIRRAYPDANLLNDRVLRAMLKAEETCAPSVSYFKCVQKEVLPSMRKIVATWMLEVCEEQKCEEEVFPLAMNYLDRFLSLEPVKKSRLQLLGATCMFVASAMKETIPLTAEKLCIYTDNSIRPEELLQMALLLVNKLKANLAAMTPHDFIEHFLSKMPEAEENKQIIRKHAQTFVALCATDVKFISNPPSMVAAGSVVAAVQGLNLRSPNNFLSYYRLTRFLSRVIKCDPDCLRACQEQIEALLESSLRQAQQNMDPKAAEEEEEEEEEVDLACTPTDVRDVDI
L7A: 0.00461
F8L: -0.129
S6A: 1.45
D12A: 0.377
S2A: 0.869
H13A: 0.605
C4A: 0.403

Single results of other studies
PhoQ, residues 284 288 289 292 302 303 HSYLQF
fold induction (PhoP, residues 12 14 15 18 19 NFCKL (Escherichia coli, UniProt P23836); Sort-seq, item: YFP reporter; E. coli; PhoQ-PhoP variant library, added: 10 µM Mg2+; reference: high Mg2+ state, higher = stronger signaling): 0.871

A few entries again (set 4):
ACGCGAA: 0.0225
CGGUAAC: -0.166
CCUUGCG: -0.382
AUCUAAC: -0.199
CGCGGUA: -0.193
GCCUAUU: -0.344
GAGGGAC: 0.216
